Experimental data pooled from the literature.
Numbered parts are unrelated; each lists some results of a single study. Substitutions count along the parent as printed.

Set 1
Target: Interferon regulatory factor 7, full length, phosphomimetic (IRF7, Homo sapiens, UniProt Q92985, residues 1-503, S471D/S472D/S475D/S476D/S477D/S483D/S484D/S487D)
Method: protein-binding microarray
Form: double-stranded DNA, one strand shown
Sample: in vitro
Concentration: 2200 nM top
Setting: 60-bp whole probe
Added: salmon DNA 0.4 mg/ml
Baseline: random background probes
Reading: higher = stronger binding
Shared flanks, not repeated: GCCTAGCAC … GTCTTGATTCGCTTGACGCTGCTG
Residues (chain): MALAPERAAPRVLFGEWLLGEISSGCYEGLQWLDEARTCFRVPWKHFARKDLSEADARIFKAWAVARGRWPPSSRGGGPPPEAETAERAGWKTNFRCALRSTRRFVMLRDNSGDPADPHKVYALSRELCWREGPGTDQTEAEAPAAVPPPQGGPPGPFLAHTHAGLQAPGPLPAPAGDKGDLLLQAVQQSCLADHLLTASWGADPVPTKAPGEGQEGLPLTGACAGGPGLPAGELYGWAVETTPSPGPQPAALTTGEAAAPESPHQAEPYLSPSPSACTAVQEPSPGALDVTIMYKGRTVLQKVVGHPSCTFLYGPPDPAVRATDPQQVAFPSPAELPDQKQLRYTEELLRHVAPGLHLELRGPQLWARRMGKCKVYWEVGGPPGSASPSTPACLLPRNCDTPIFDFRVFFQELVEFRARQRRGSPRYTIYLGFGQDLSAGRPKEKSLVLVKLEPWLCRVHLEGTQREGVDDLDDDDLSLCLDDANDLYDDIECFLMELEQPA
Strand	fitted relative affinity [z-score]
TTAGATCTCAGACTGGATTTGTGCTAG	-0.113
TTAGGTTCCGGTTTCGGTTTGTGCTAG	14.1
GACGGACTGCTTCTACTGACGTGCTAG	0.252
GTAGGTTTCCTTTTCCTTTAGTGCTAG	7.11
TTAGGTTTCGACTATCGGTTAGTGCTA	3.37
CACGGTCTCGGTCTCGGGACGTGCTAG	0.00151
TTAGGTTCACTTTTCCTTTAGTGCTAG	4.14
TTAGATATCGGGTATCGATTGGTGCTA	0.295
GACGGACCGGGTCTCGGGACGTGCTAG	-0.752
GACGTTTTCAGACTGGAGACGTGCTAG	1.05
GACGGTTTCCTTCTCGTGACGTGCTAG	2.74
TTAGGTTTCCTTTGCCTTTAGTGCTAG	1.93
TTAGAACTGGGGTATCGATTCGTGCTA	0.525
TTAGTTATCAGTATCGATTAGTGCTAG	0.782
TTAGGTTACGGGTATCGGTTAGTGCTA	0.895
AACGGTCTCGGTTTCGGGACGTGCTAG	4.15
GACGGTTTCTGTTTCGGGACGTGCTAG	7.8
TTAGGTATCGCTTTCGGTTAGTGCTAG	7.8
TTTTTTATCAATCATTTTCGTGTGCTA	2.4
GACGGTTTCCGTTTCGGGACGTGCTAG	6.97
GAGGATATCAGTTTCGAGACGTGCTAG	3.43
TTAGGTATCGGTCTCGGTCAGTGCTAG	0.544

Set 2
Target: CRIPT, C-terminal peptide
Method: DHFR complementation, deep sequencing
Sample: yeast
Setting: single substitutions, model-inferred values
Baseline: wild type
Reading: higher = weaker binding
Parent: ERBIN, PDZ domain 1 (human); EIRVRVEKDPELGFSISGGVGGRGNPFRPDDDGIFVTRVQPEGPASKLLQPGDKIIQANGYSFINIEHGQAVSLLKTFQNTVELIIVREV; partner TKNYKQTSV
Substitution	binding free energy change
V6N	0.636 kcal/mol
K54D	0.823 kcal/mol
P26R	0.786 kcal/mol
D53C	0.307 kcal/mol
I64N	0.0164 kcal/mol
Q50S	0.0666 kcal/mol
E89H	0.102 kcal/mol
I34S	0.208 kcal/mol
L75D	1.18 kcal/mol
E11T	-0.198 kcal/mol
L74P	0.605 kcal/mol
P41I	0.357 kcal/mol
P44K	0.33 kcal/mol
L48D	0.171 kcal/mol
K47I	0.257 kcal/mol
H68E	1.16 kcal/mol
Y61T	0.0714 kcal/mol
P41G	0.33 kcal/mol
D53P	1.67 kcal/mol
Q40L	0.123 kcal/mol
V87L	0.0485 kcal/mol
N65P	-0.0193 kcal/mol
S15F	0.485 kcal/mol
V72G	0.297 kcal/mol
K47P	0.208 kcal/mol

Set 3
Target: BATF, bZIP domain (human)
Method: DHFR protein complementation
Sample: yeast
Setting: single substitutions, most at no-binding floor
Baseline: wild-type JUN-FOS pair
Reading: higher = stronger binding
Parent: JUN, bZIP domain (human); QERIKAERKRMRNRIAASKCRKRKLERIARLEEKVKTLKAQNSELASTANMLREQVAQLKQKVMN; partner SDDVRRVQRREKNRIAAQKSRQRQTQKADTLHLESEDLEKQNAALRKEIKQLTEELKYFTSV
Substitution	binding fitness
K36P	-0.945 natural log
K39G	-0.366 natural log
S47H	0.0479 natural log
E54L	-0.163 natural log
S47K	0.101 natural log
S43M	0.00688 natural log
M51C	-0.00918 natural log
S43A	0.113 natural log
Q55S	-0.134 natural log
S43D	-0.0203 natural log
L45S	-1.04 natural log
K34D	-0.126 natural log
A40T	0.125 natural log
V56P	-1.11 natural log
T48E	-0.0936 natural log
R53S	-0.398 natural log
A40K	0.0392 natural log
L38Q	-0.0932 natural log
L45W	-0.683 natural log

Set 4
Target: Histone acetyltransferase KAT6A, both winged helices, GST fusion (KAT6A, Homo sapiens, UniProt Q92794, residues 1-181)
Method: protein binding microarray
Form: double-stranded DNA, one strand shown
Sample: in vitro
Concentration: not given
Setting: 8-mer, flanks averaged, mean of 2 arrays, mostly near background
Baseline: not given
Reading: higher = stronger binding
Residues (chain): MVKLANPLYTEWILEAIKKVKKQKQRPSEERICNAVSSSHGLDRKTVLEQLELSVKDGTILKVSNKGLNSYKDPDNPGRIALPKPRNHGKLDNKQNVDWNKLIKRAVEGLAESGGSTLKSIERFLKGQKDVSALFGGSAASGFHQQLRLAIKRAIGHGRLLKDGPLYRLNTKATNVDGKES
Strand	E-score
AACGCAGG	0.052
TAAAAGGA	-0.179
ACCGCTCC	0.221
AAGCGGAC	0.189
TGGTTTAA	-0.0881
AAGTGTTG	-0.113
GGTCCAAC	-0.0587
GCGACAGC	0.188
AGTACTAC	-0.133
GGTCCATA	-0.0466
AGGATTTA	-0.0885
TGAGAAAA	-0.22
GGCAATAC	0.0871
GGGACAGA	0.0204
GGCGCGCA	0.356
CAAATTAC	-0.108
TCAAACCA	0.0624
ATAGATCG	-0.0289
GAGGGACC	-0.132
AGCCTCGG	-0.0204

Set 5
Target: RING finger protein unkempt homolog, zinc fingers 1-6, SBP tag (UNK, Homo sapiens, UniProt Q9C0B0, residues 30-357)
Chain of UniProt Q9C0B0 (30-357, looked up): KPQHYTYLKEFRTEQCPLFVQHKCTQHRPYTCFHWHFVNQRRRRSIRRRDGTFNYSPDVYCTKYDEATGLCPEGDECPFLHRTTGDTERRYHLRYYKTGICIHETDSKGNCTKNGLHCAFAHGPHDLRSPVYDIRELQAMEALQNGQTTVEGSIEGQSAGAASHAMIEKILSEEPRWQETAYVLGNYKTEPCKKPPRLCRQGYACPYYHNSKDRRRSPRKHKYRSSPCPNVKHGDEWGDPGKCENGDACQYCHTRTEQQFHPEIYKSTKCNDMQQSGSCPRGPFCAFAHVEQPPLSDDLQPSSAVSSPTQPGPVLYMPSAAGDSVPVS
Method: RNA Bind-n-Seq
Form: RNA
Sample: in vitro
Concentration: 100 nM
Setting: RNA with constant flanks, vertebrate orthologous sites, ends assumed
Baseline: input RNA pool
Reading: higher = stronger binding
Shared flanks, not repeated: GGGAGUUCUACAGUCCGACGAUC … CAACAGAGGAUUGAGCAUCA
Strand	bound/input enrichment
GUGUUUUGGUACCACUCAAUGUACCAAUACUCAUCCUUUUUUCAUUAUACCAACUAUCGCUAGAAGUAGGAGUUUAAUAUUUUUAAAAAUUUUACAUUGCUGUAUAUUCAAAAUUUUAAA	0.581 ratio
GGCCUCCAACAGGCAAAUUCAGGGAGGAUAGGUUUCAGGGAAUAUACAUUUAUUUAAUAUUAGUGGUCUUUAAGUGUAAACUUGAUGUAAUUGGUUUGGGAGGGGGCAGUGAUGAUGACU	1.55 ratio
UAGUUUUGUACAGGGCCUUCUCUGUACUAGUUUGUUGUGGUUAUAAAACAAUUAGCAAACCGGCUUACAUUUGUAUUUAUUUUCUAUUCCUUAUUUUCCCUGCCUUAUGUUUUUUCUUUC	1.77 ratio
UUAAACUGGUAUUUUCGGACCACAUGAAGCUUUUCUCUUUUUUUUUUUUUUUUUUUACAGUUUAGUAUCUGGUUUCUACAUGGAAGACUGAAACUUUCAUGCUUAUUGUUAAAUGUGUUU	0.324 ratio
GUUGUGACCCAUUUAACAUACACAAAAAACUAGCCAAAAAAAAUUUGCAUGUGAUUGACUUAGAUGAUGCCACCUUCCUGAGUGCAAAAUUUGGAAGACAGCUUGUACCUGGUUGGAAGC	1.52 ratio
CGUGCUUAUGCUCUUCUAUGAGAGAGAUGAAUUGGGGAGAACUGUCUCCGUUUUAUAGAUUAGUUUCUUUCUAAAUUGUGACCAAAAAUAUUUUGCUAUUUCUUUCUUUGUAUAUGGACA	0.601 ratio
CAGUCCCCUGGGCUGGGACAGAUUUUUUUUUUAAAGUCUUGAAAUUUAAAACUGUGCUUGUAAGAGACAGUAACCUUUUGUCUUUUUUUUUUUUUUUUUUUUUUUAAACACCCCCACCUA	1.61 ratio
CUUUUUUUUUUGCACAUGACAGUGUUUGUAUUGAGGACCUUCCAAGGAAGAGGGAUGCUGUAGCAGUGGUGCCUGGGUGCCUGGCCUCCAGUGUCCCACCUCCUUCACCACCCCACUUGG	0.286 ratio
AUGUUUCCACUGGGUUUUGUCUGUUAAGAAAAAAGAAAGAAAAACGCGAACCCGACCACAUAGAGCUUUUUAAUAGCACUAACCAAUGCCUUUUUAGAUGUAUUUUUGAUGUACAUAUCU	1.92 ratio
AAGGGCUGCGUAGAGUAGGGCGCGUUUUGCUUAGGUCAUUGCUUCUUGAUUUUCUUUUUUUAGGGGUGGGUCAGGGUUGUGGCACACUAGCUCGGGCGAGAGCUGCCGCAAGUCACCUCA	1.64 ratio
AUCCCAGUUUGUAUGCACAUUAUUCACAUUCCUAUCUGUUGUGUUUGCAGAAAUGACAUUUUACCCUUUUCUAAGGGUUAUUUUUGAUUUCAUACGAUUUGGUUGCAUGAAGUUGCCCUU	0.289 ratio

Set 6
Target: CCND3, cyclin fold, Cln2 fusion (human)
Method: yeast growth competition, sequencing
Sample: yeast
Setting: weak parent motif
Baseline: not given
Reading: higher = stronger binding
Parent: SAMHD1 docking peptide (human); ASKSRVQLFKDDP
Substitution	normalised enrichment score
ACKSRVQLFKDDP [S2C]	-0.0569
ASKSRPQLFKDDP [V6P]	-0.251
ASKSRVQLFKDIP [D12I]	0.281
ASQSRVQLFKDDP [K3Q]	-0.128
ASKSRVQLMKDDP [F9M]	0.209
ASKSRVQLFKQDP [D11Q]	-0.0914
ASKSRVSLFKDDP [Q7S]	-0.171
ASHSRVQLFKDDP [K3H]	0.0351
ASKMRVQLFKDDP [S4M]	0.055
ASKSRVQLAKDDP [F9A]	0.0566
ASKSRVQLFGDDP [K10G]	0.101
ASKSRHQLFKDDP [V6H]	-0.0438
ASKSSVQLFKDDP [R5S]	-0.112
ASKSREQLFKDDP [V6E]	-0.0294
ASKSRSQLFKDDP [V6S]	-0.511
ASKYRVQLFKDDP [S4Y]	0.164
ASKSRVQLFKPDP [D11P]	0.274
ASKSRVQLFKDQP [D12Q]	0.0896
ASESRVQLFKDDP [K3E]	-0.19
ADKSRVQLFKDDP [S2D]	0.17
AKKSRVQLFKDDP [S2K]	0.104
ASKSRVQLFKDMP [D12M]	0.048
ASKCRVQLFKDDP [S4C]	0.288
ASKHRVQLFKDDP [S4H]	0.0981
ASKSHVQLFKDDP [R5H]	0.0524

Set 7
Target: ABI1, truncated, D143A, DHFR fusion (Arabidopsis thaliana)
Method: DHFR PCA, deep sequencing
Sample: yeast
Setting: methotrexate growth selection, single substitutions
Added: (+)-ABA 200 µM
Baseline: wild-type fitted maximum
Reading: higher = stronger binding
Parent: PYL1, truncated, DHFR fusion (Arabidopsis thaliana); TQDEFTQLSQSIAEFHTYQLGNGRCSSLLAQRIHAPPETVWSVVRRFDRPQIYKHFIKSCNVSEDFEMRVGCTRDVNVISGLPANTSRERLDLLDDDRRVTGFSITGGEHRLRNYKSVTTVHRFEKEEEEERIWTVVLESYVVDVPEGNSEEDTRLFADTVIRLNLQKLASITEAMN; partner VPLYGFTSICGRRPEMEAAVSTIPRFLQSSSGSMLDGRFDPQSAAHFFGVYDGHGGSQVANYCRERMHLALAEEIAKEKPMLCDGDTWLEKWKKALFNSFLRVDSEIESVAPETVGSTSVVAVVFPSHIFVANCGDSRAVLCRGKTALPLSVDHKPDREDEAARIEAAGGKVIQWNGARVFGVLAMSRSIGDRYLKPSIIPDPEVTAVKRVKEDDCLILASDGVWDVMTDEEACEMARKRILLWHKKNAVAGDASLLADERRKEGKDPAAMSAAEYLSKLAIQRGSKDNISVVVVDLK
Substitution	relative binding score [%]
E174R	82.7
H55Q	110
L156T	100
A35W	8.6
E147V	95.4
F56Y	88.3
T101H	59.1
E130V	106
K58N	87.4
L94P	-14.4
V142T	94.6
Q7N	96.6
F47Y	65.9
R99Q	96.7
L94F	105
S117K	-6.65
R163P	4.54
R90V	94.4

For quick reference, copied from above (set 2):
Substitution	binding free energy change
Q50S	0.0666 kcal/mol
E89H	0.102 kcal/mol
I34S	0.208 kcal/mol
L75D	1.18 kcal/mol
E11T	-0.198 kcal/mol
L74P	0.605 kcal/mol
P41I	0.357 kcal/mol
P44K	0.33 kcal/mol
L48D	0.171 kcal/mol
K47I	0.257 kcal/mol
H68E	1.16 kcal/mol
Y61T	0.0714 kcal/mol
P41G	0.33 kcal/mol
D53P	1.67 kcal/mol
Q40L	0.123 kcal/mol
